# Experimental data pooled from the literature.
# Parts stem from different laboratories: compare values within a part only.

# Set 1 — technique: protein-binding microarray; form: double-stranded DNA, one strand shown; sample: in vitro; tested at: 940 nM top; setting: 60-bp whole probe; added: salmon DNA 0.4 mg/ml; reference: random background probes; reading: higher = stronger binding; shared flanks, not repeated: GCCTAGCAC … GTCTTGATTCGCTTGACGCTGCTG
# Target: Interferon regulatory factor 5, full length, phosphomimetic (IRF5, Homo sapiens, UniProt Q13568-2, residues 1-514, S451D/S453D/S456D/S462D)
Oligonucleotide,fitted relative affinity [z-score]
GACGGACTGCCTCTCCTGACGTGCTAG,-0.338
GTCGGTCTCCTTTTCCTGACGTGCTAG,1.89
TCAAATTTCCACTTTGAACTGTGCTAG,0.401
AACGATATCGGGTTTCGAGACGTGCTA,2.02
TCAGGTGTCTTTTGTGGAACTGTGCTA,0.116
GACGGACTGAACTTTCGGGACGTGCTA,-0.124
GACGGTATCCTCCTGCTGACGTGCTAG,0.57
GGAGTTTCCACCCTTCTCTCGTGCTAG,1.68
GACGGACTGGGGTAGCGGGACGTGCTA,-0.526
GACGGACTGGACTATTGGGACGTGCTA,-0.481
GACGGTTTCGGGTTTCGGGATGTGCTA,8.99
TCATTTTTCTCCTATTTAACTGTGCTA,1.91
GATGGTTCCGGTTTCGGGACGTGCTAG,5.94
TCAGAACTGGGGTATCGATTAGTGCTA,2.7
TCATTTTTTTTTTCATCACTGTGCTAG,1.72
TCAGAATTACCTCTGGAACTGTGCTAG,-0.447
GACGGTATCCGGTTTCGGGACGTGCTA,3.19
GACGATATCGGGTTTCCAGACGTGCTA,0.21
TTAGGTTTTGGGACTGGGTTAGTGCTA,1.12

# Set 2 — technique: RNA Bind-n-Seq; form: RNA; sample: in vitro; tested at: 365 nM; reference: no-protein control; reading: higher = stronger binding
# Target: RNA binding protein fox-1 homolog 2, RRM domain, GST-SBP tag (RBFOX2, Homo sapiens, UniProt O43251-10, residues 100-194)
# Setting: natural RNA segment, single round, ends assumed
# Shared flanks, not repeated: GGGAGUUCUACAGUCCGACGAUC … UGGAAUUCUCGGGUGCCAA
# Residues (chain): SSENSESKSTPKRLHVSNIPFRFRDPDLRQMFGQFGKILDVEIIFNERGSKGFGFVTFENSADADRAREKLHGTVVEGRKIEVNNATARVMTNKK
Oligonucleotide,RBNS enrichment (R)
AGAAAGUGCAUCAGUGAAGAGAUGCAAGACUUUCAACUGACUGGCAAAAAGCAAGCUUUAGCUUGUCUUAUAGGAUGCUUAGUUUGCCACUACACUUCAGACCAAUGGGA,0.712
UUAAAUAAUUUAAUUGCAUUAUAGCAUAUAAACUAUAAAUGAAAAUGAUCUUUGUCUUUCCUUUAUCUUGCUUUAUCCUCUUAUCCAAUUCUAGACUCUUAAAUAAUCAC,0.693
AGUGCUUUACAUGCUGUGCUCUUUGAAGAGAUUUCAACAAGAAUAUUGUAUGUUAAAGCAUCAGAGAUGGUAAUCUACAGCUCACCUCUGAAGGCAAAUAUAAGCUGGGA,0.201
AUGUUUAAAAAUUGGAAGGAAAUACUACUCAUAUCUUCAUUGUCACUUUGUCUUACCUCAAUUGAGUAACAGAAUAUAGCUCCUGAAGGAAACACUGAUUUGCUUUCUGU,0.485
AUUUUAGAAAAAGAAGCUUAAUCUAACGUUUUCAAACACAAGGUCUCUUACAGGUAUAGUUCCGUGAUUAUGAUAGCUCUGUGAUUAUAAGCAACAUCCCCGCCCCCUCU,0.395
GAUCGGUGACAGUCACUAGCUUAUCUUGAACAGAUAUUUAAUUUUGCUAACACUCAGCUCUGCCCUCCCCGAUCCCCUGGCUCCCCAGCACACAUUCCUUUGAAAUAAGG,0.397
UCAUUGAAAUAAAGCUACAGCACAAGACAACUUACAGAUUGUGAAACAGCGAGAAUGAAGAGCUACAUUCUUGCAGACGAGCUGUAGGUCGUACACGAAUGUCUAAAGAG,0.506
GAUGCUUGUAAAUACUAUUUAUGUUUUUAAUUUUGUAAAAUAAAGAUUUCUUUUUAACCACUGGCAUUAAGGUUUGGUCUUUCAUAGCUAUGGAUUGCUGGCUCUGGAAG,2.6

# Set 3 — technique: RNA Bind-n-Seq; form: RNA; sample: in vitro; tested at: not given; setting: RNA with constant flanks, ends assumed; reference: input RNA pool; reading: higher = stronger binding
# Target: RING finger protein unkempt homolog, zinc fingers 1-6, GST-SBP tag (UNK, Homo sapiens, UniProt Q9C0B0, residues 30-357)
# Shared flanks, not repeated: GGGAGUUCUACAGUCCGACGAUC … CAACAGAGGAUUGAGCAUCA
# Residues (chain): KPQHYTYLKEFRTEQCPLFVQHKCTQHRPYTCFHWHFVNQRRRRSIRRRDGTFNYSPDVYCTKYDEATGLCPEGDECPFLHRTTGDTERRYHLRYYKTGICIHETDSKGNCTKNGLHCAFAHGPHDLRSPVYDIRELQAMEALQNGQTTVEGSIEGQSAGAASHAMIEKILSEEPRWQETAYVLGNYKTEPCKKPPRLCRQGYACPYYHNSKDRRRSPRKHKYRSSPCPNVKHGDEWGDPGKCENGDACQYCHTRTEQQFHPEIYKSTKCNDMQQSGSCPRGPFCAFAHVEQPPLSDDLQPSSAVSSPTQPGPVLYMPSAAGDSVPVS
Oligonucleotide,bound/input enrichment [ratio]
UCUUUAUACAGACUGAGGCUCAGUCUGCCUGCCCGUCUCUGGGGUGUUCCAUCUCAGCAUCCGGUCAGUUGGUUCUGUUGAGUGUCUUCAGGUCCACCUCCAGCUGGUGAUUAUUUCAGA,0.0884
CUCCCUGGAGGAGUCAAGGCCUUGAAGCUACCUAAUGAAGAGGCCACCACACCAUCCGACUCCGCUUUGCAAGGUGGACACUCCACACUGGUAGAAGACAUCACAAAUUUUCAGGGUAGC,0.119
CCUCUGCUGCGAGAAGUUCUGGAGAAGCAGCCAGUGCUAAGCCAGACCGAGGCCCGCGACUCCGCCGAACGCUGCAUGCGAGUGCUGUACUACCGAGAUGCCCGUUCUUACAACCGGUUU,0.0645
GAAGGGGAGCACCAUGAGAAAGCGGUAGAGCUACUGAAAGCAGCCCAAGGGAAGGUUAAAUCCGUCGUACGGUACACACCAAAAGUCUUGGAAGAAAUGGAGUCCCGCUUUGAGAAAAUG,0.194
ACCAUGAAUGAUAUCGAUGCUUUUGAAUUUCAUGAAGCCUUCUCAGGCCAGAUUUCCGCUAACUUUAAAGCCAUGGAUUCUGAUUGGUUUGCACAAAACUACAUGGGUAGGAAAACCAAG,0.109
AGUAUCAAUUGUGUGAGCUUGGGUGCGAGUGCACGCGUGCGUGAGUACGGAGAGUAUAUACCGAUCUCUAUCUCUUAGCAAAGGUGAAUGCCAGAUGUAAAUGGCGCCUCUGGGCAAAGG,0.496

# Set 4 — technique: RNAcompete; form: RNA; sample: in vitro; tested at: 20 nM; setting: 7-mer, probes averaged, single round; reference: mean of 7-mers; reading: higher = stronger binding
# Target: PABPC1L2, full length, GST fusion (mouse, UniProt A0ABA7IW68)
# Target sequence (chain): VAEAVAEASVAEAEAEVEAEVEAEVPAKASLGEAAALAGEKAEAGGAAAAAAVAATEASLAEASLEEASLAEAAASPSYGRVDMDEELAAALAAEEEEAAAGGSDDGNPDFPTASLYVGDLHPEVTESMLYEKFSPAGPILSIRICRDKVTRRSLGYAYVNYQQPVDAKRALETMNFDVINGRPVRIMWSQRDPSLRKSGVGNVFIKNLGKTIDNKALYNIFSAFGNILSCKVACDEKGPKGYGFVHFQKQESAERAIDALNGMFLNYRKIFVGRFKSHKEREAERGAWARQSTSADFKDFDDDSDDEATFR
Oligonucleotide,7-mer Z-score
CUCUUCA,-0.393
AAAUUGG,2.22
GAAGAGG,0.343
AGUCAGC,-0.195
CACACCC,-0.277
UGCCUAU,-0.333
GCGCUGG,0.0623
UGAAAAG,2.16
GAUUGCU,-0.141
CAGAGUG,-0.0681
CAGUAGG,-0.0264
CCUCUAG,-0.238
GAGGCGA,0.273
GCGAGAC,0.206
UUACAAG,-0.0645
CGGGAAU,0.0859
CUUGCCC,-0.412
AAAUUUA,1.59
GUUCGAA,-0.104
GUGUUGG,-0.213
AUCUCAC,-0.144
CUCUGCG,-0.229
GGCAUAA,0.454
CGACUAA,0.046
